# Assay results collected from several papers.
# Numbered parts are unrelated; each lists some results of a single study.

# Block 1
# Target: RING finger protein unkempt homolog, zinc fingers 1-6, GST-SBP tag (UNK, Homo sapiens, UniProt Q9C0B0, residues 30-357)
# Sequence of UniProt Q9C0B0 (30-357, looked up): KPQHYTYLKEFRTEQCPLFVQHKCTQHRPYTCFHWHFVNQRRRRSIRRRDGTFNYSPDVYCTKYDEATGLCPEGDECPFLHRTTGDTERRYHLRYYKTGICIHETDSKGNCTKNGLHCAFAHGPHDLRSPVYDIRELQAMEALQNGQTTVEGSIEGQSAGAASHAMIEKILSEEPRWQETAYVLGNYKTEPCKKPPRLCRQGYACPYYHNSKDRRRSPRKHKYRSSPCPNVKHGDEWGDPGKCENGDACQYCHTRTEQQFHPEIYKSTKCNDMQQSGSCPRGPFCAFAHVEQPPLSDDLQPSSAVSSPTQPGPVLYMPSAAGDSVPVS
# Method: RNA Bind-n-Seq
# Molecule type: RNA
# Medium: in vitro
# Tested at: not given
# Setting: RNA with constant flanks, human and mouse sites, ends assumed
# Reference: input RNA pool
# Reading: higher = stronger binding
# All sequences stand within: GGGAGUUCUACAGUCCGACGAUC … CAACAGAGGAUUGAGCAUCA
Strand,bound/input enrichment [ratio]
AAUACUGAAAAUAAGCUCCUGUUACAGCAGAGAUCAGAUGCUAAAAUUACCUUUCCAGGUUGUUUCACCAAUAGUUGCUGUAGUCAUCCAUUAAGUAACCCAGGCGAGCUGGAAGAGAAC,0.453
GAUUCCAAGCUAACAAGACUACUACAGGAUUCCCUCGGGGGUAAUAGCCAAACAAUCAUGAUAGCAUGUGUCAGCCCUUCAGACAGAGACUUUAUGGAAACGUUAAACACCCUGAAAUAC,0.287
CCUUAUGUCUAUGUUGAAAUCCAUGGAAUCCCUGCUGAUUGUGCAGAACAAAGGACAAAAACAGUGCACCAGAAUGGAGACGCUCCCAUUUUUGAUGAAAGCUUUGAAUUUCAAAUCAAC,0.132
UGCUCAAGACAGCUAUUUGGAUGGCUCUUUUGCAAAGUACAUCCUGGUGCUAUUGUGUUUGCUAUAUUAGCAGCAAUGUCAAUACAAGGUUCAGCAAAUCUGCAAACCCAGUGGAAUAUU,0.154
GAUGGACUUACUGUUCACCUUGUCAUUAAAACACAAAACAGGCCUCAGGAUCAUUCAGCUCAGCAAACAAAUACAGCUGGAAGCAAUGUUACUACAUCAUCAACUCCUAAUAGUAACUCU,0.524
GGUGGGACGGAAAAGACAUCACAGUAUGCAGGAAGGCUUGGGUUUGCUCAAAGUACCAGGUAUAGGGAUGAACCUCUGAUGGGCUCUCUGCCCUAGAGUUGGGCAGCCUUCUCACCCCAG,0.319

# Block 2
# Target: Sal-like protein 4, full length isoform B (SALL4, Homo sapiens, UniProt Q9UJQ4-2, residues 1-616)
# Method: universal PBM
# Molecule type: double-stranded DNA, one strand shown
# Medium: in vitro
# Tested at: not given
# Setting: 8-mer, flanks averaged, mean of replicates
# Reading: higher = stronger binding
Strand,E-score
AGAGTGCG,-0.14
GACGCCGA,-0.143
AAGGCGTG,-0.176
ACCGTGCA,-0.129
CTATCAGC,0.0785
ACGCTGGC,-0.232
ATAGCCCG,-0.168

# Block 3
# Target: Histone acetyltransferase KAT6A, winged helix 1, GST fusion (KAT6A, Homo sapiens, UniProt Q92794, residues 1-85)
# Method: protein binding microarray
# Molecule type: double-stranded DNA, one strand shown
# Medium: in vitro
# Tested at: not given
# Setting: 8-mer, flanks averaged, mean of 2 arrays, mostly near background
# Reference: not given
# Reading: higher = stronger binding
# Residues (chain): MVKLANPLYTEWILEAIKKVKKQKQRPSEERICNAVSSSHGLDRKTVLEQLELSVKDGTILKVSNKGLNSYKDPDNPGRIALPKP
Strand,E-score
CTATCACA,-0.17
CTGCATCA,-0.232
CGTAACGA,0.117
TGCCGCAA,0.2
ACATGATC,-0.0615

# Single results of other studies
Substance,target,test,system,setting,how to read,measurement,value
"PhoQ, residues 284 288 289 292 302 303 SLANKL","PhoP, residues 12 14 15 18 19 NFCKL (Escherichia coli, UniProt P23836)","Sort-seq, measured: YFP reporter",E. coli,"PhoQ-PhoP variant library, with: 10 µM Mg2+","reference: high Mg2+ state, higher = stronger signaling",fold induction,0.639

# Repeated from above (block 2):
Strand,E-score
AGAGTGCG,-0.14
GACGCCGA,-0.143
